{"data": "Experimental data from different studies", "note": "Parts stem from different laboratories: compare values within a part only. “And” joins repeats or separate records; there may be more than shown. Substitutions count along the parent as printed.", "chain of UniProt P23458 (whole entry, looked up)": "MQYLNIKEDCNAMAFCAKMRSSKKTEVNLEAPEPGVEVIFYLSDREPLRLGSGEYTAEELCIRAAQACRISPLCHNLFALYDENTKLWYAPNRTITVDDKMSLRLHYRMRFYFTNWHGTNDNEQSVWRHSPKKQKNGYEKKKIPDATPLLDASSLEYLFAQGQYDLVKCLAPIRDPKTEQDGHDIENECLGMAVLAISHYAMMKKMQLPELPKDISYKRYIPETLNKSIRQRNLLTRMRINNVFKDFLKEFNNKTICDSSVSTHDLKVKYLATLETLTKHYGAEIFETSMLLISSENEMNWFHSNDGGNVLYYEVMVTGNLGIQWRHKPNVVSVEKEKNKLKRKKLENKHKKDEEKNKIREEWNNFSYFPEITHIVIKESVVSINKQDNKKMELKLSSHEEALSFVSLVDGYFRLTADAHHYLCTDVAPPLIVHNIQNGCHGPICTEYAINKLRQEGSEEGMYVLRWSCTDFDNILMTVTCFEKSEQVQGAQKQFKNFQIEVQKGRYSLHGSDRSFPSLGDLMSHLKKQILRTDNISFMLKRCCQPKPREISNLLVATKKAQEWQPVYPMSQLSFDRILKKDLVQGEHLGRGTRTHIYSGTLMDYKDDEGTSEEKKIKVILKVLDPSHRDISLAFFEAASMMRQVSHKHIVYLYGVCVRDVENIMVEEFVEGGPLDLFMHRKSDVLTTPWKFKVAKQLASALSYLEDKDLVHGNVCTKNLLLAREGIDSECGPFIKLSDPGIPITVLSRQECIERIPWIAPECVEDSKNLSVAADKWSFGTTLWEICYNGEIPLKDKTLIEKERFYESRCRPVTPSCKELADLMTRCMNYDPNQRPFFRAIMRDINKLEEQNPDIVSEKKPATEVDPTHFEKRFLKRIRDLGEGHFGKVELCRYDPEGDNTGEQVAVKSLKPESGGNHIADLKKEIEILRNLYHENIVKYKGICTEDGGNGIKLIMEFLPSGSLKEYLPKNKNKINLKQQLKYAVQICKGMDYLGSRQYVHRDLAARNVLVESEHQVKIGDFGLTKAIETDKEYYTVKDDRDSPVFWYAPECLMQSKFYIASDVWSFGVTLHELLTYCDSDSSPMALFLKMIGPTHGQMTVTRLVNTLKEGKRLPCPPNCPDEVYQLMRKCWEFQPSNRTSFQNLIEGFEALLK", "chain of UniProt Q8N5S9 (whole entry, looked up)": "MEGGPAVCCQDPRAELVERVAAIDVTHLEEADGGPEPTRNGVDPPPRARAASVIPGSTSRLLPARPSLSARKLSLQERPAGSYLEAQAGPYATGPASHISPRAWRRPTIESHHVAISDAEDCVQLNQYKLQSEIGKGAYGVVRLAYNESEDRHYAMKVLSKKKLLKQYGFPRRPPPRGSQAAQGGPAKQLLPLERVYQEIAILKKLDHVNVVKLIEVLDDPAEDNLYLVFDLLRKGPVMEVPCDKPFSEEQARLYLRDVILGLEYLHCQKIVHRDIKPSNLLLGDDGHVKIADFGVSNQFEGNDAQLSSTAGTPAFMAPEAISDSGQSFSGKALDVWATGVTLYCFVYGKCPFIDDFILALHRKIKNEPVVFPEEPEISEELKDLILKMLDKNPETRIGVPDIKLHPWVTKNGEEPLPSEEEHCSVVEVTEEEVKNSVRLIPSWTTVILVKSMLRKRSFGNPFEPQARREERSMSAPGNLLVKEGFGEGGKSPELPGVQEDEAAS", "chain of UniProt Q14012 (whole entry, looked up)": "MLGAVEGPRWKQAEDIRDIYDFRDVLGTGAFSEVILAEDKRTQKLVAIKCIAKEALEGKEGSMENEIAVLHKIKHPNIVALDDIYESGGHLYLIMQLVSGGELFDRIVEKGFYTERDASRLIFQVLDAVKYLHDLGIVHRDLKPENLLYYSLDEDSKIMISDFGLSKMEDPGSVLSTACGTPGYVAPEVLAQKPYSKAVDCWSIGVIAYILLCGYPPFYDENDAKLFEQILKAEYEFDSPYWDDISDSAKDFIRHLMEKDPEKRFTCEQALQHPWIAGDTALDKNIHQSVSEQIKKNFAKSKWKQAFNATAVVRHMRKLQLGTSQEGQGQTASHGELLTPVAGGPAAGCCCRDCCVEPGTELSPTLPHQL", "chain of UniProt P51812 (whole entry, looked up)": "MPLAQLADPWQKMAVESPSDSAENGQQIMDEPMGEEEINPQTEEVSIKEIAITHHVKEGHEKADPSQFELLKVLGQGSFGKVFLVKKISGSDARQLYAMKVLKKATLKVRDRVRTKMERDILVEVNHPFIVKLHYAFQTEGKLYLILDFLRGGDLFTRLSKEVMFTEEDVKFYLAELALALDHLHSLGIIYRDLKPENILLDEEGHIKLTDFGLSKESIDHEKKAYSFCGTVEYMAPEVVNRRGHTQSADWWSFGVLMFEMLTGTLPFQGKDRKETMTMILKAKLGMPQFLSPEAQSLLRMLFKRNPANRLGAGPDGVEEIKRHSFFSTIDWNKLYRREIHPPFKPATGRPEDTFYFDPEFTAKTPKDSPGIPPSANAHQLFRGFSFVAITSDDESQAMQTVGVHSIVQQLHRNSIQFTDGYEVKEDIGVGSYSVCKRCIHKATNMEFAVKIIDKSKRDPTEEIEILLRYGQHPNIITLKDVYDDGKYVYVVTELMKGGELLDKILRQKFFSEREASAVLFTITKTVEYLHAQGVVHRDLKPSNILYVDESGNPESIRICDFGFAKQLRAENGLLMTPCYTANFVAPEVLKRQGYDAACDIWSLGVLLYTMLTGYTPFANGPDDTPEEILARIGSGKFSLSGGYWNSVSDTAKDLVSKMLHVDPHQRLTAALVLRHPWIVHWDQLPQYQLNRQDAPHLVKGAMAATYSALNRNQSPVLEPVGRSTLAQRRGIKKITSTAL", "chain of UniProt P49760 (whole entry, looked up)": "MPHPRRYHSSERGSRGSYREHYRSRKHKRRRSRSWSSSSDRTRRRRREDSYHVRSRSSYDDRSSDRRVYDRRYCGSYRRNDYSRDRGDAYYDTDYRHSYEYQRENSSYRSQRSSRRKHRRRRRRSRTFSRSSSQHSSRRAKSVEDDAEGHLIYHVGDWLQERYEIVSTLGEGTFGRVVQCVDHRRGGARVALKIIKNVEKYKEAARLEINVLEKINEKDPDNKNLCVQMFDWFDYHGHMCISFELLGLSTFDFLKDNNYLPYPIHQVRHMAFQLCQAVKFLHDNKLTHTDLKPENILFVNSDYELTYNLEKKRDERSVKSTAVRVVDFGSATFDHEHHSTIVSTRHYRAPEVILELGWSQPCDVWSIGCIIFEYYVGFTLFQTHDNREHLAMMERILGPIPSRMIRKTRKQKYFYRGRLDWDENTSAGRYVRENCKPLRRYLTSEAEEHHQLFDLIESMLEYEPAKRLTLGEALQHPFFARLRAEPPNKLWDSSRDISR", "chain of UniProt P62344 (whole entry, looked up)": "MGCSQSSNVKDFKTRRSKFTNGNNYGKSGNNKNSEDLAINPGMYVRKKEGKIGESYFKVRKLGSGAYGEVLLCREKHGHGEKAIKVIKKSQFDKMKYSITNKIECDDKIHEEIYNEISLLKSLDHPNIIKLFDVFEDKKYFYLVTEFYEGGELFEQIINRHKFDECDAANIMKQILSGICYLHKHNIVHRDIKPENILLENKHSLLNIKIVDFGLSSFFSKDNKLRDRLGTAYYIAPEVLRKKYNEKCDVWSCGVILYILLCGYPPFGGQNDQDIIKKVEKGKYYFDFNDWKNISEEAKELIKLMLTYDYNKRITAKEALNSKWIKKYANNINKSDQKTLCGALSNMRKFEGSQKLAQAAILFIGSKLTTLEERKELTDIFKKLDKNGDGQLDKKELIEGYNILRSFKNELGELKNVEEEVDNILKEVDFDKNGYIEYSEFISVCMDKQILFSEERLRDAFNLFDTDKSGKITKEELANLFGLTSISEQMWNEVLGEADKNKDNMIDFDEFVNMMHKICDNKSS"}
{"data": "Study 1", "cell line": "A-375", "tested at": "100 µM", "time": "36 h"}
{"SMILES": "CCC1=C[C@@H]2CN3CCc4c([nH]c5ccccc45)[C@@](C(=O)OC)(C2)[C@@H]13", "viability [%]": 96.8}
{"SMILES": "NCC(O)c1ccc(O)cc1 (stereo not shown)", "viability [%]": 123}
{"SMILES": "OC(O)C(Cl)(Cl)Cl", "viability [%]": 119}
{"SMILES": "Nc1nc(N)nc(NC2CC2)n1", "viability [%]": 103}
{"data": "Study 2", "Structure (SMILES)": "CCn1cnc2c(Nc3cccc(Cl)c3)nc(N[C@H]3CCCC[C@H]3N)nc21", "effect on": "enzyme activity", "mode": "inhibitor", "tested at": "0.5 µM", "relative to": "control"}
{"target": "CAMK1 (Homo sapiens, UniProt Q14012)", "remaining activity [%]": 103}
{"target": "SRPK1 (Homo sapiens, UniProt Q96SB4)", "remaining activity [%]": 94.2}
{"target": "CSNK1E (Homo sapiens, UniProt P49674)", "remaining activity [%]": 92.1}
{"target": "PAK6 (Homo sapiens, UniProt Q9NQU5)", "remaining activity [%]": 96.7}
{"target": "IGF1R (Homo sapiens, UniProt P08069)", "remaining activity [%]": 51.8}
{"target": "MUSK (Homo sapiens, UniProt O15146)", "remaining activity [%]": 79.8}
{"target": "TYRO3 (Homo sapiens, UniProt Q06418)", "remaining activity [%]": 98.3}
{"target": "FLT1 (Homo sapiens, UniProt P17948)", "remaining activity [%]": 92.8}
{"target": "CAMKK1 (Homo sapiens, UniProt Q8N5S9)", "remaining activity [%]": 107}
{"target": "JAK1 (Homo sapiens, UniProt P23458)", "remaining activity [%]": 98.6}
{"target": "CLK2 (Homo sapiens, UniProt P49760)", "remaining activity [%]": 26.6}
{"target": "CSNK1D (Homo sapiens, UniProt P48730)", "remaining activity [%]": 97.8}
{"target": "PAK1 (Homo sapiens, UniProt Q13153)", "remaining activity [%]": 88.8}
{"target": "TEC (Homo sapiens, UniProt P42680)", "remaining activity [%]": 123}
{"target": "Cyclin-dependent kinase 2, with cyclin E (CDK2, Homo sapiens, UniProt P24941)", "remaining activity [%]": 16.8}
{"target": "SGK2 (Homo sapiens, UniProt Q9HBY8)", "remaining activity [%]": 98.2}
{"target": "MAP3K20 (Homo sapiens, UniProt Q9NYL2)", "remaining activity [%]": 104}
{"target": "SIK2 (Homo sapiens, UniProt Q9H0K1)", "remaining activity [%]": 89.1}
{"target": "PRKCZ (Homo sapiens, UniProt Q05513)", "remaining activity [%]": 106}
{"target": "RPS6KA3 (Homo sapiens, UniProt P51812)", "remaining activity [%]": 64.1}
{"target": "PRKCQ (Homo sapiens, UniProt Q04759)", "remaining activity [%]": 93.3}
{"target": "EPHA2 (Homo sapiens, UniProt P29317)", "remaining activity [%]": 86.7}
{"data": "Study 3", "target": "Calcium/calmodulin-dependent protein kinase type II subunit alpha (CAMK2A, Homo sapiens, UniProt Q9UQM7)", "effect on": "enzyme activity", "mode": "inhibitor", "tested at": "10 µM", "chain of UniProt Q9UQM7 (whole entry, looked up)": "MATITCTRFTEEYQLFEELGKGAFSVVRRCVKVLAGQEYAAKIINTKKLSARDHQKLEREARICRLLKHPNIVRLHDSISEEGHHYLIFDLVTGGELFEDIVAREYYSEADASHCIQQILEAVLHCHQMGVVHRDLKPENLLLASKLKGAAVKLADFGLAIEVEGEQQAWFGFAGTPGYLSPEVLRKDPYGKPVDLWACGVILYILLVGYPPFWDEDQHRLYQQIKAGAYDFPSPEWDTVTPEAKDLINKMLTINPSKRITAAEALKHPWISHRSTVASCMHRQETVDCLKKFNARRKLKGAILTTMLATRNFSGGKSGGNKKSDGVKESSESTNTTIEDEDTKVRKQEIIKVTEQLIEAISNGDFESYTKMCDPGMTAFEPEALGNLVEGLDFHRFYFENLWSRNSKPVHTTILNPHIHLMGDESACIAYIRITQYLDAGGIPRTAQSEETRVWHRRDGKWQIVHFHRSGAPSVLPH"}
{"SMILES": "O=C(/C=C/c1ccccc1)OC[C@H]1O[C@@H](O[C@@H]2OC=C[C@H]3[C@H](O)[C@@H]4O[C@]4(CO)[C@@H]23)[C@H](O)[C@@H](O)[C@@H]1O", "inhibition [%]": -34}
{"SMILES": "CC1=C(C(=O)Nc2ccccc2)SCCO1", "inhibition [%]": 2}
{"SMILES": "CC(C)C(Br)C(=O)NC(N)=O (stereo not shown)", "inhibition [%]": -2}
{"SMILES": "COC1=CC(=O)O[C@@H](/C=C/c2ccccc2)C1", "inhibition [%]": 1}
{"data": "Study 4", "organism": "Sarcocystis neurona", "effect on": "parasite growth", "tested at": "10 µM", "time": "96 h", "notes": "second screen", "relative to": "untreated"}
{"SMILES": "CN1C(=O)CN=C(c2ccccc2)c2cc([N+](=O)[O-])ccc21", "log2 fold change": 0.21}
{"SMILES": "C[C@]12C/C(=C/O)C(=O)C[C@@H]1CC[C@@H]1[C@@H]2CC[C@@]2(C)[C@H]1CC[C@]2(C)O", "log2 fold change": 0.27}
{"SMILES": "CNC1CC(c2ccc(Cl)c(Cl)c2)c2ccccc21 (stereo not shown)", "log2 fold change": 0.14}
{"SMILES": "COc1ccc(C(CN(C)C)C2(O)CCCCC2)cc1 (stereo not shown)", "log2 fold change": 0.32}
{"data": "Study 5", "target": "CCNB1, cyclin fold, Cln2 fusion (human)", "method": "yeast growth competition, sequencing", "matrix": "yeast", "notes": "strong parent motif", "relative to": "not given", "reading": "higher = stronger binding", "starting sequence": "viral docking peptide; KGVKRKLFAEDSS"}
{"Substitution": "V3A", "normalised enrichment score": 0.849}
{"Substitution": "S12D", "normalised enrichment score": 3.55}
{"Substitution": "G2K", "normalised enrichment score": 1.88}
{"Substitution": "D11V", "normalised enrichment score": 1.22}
{"Substitution": "L7N", "normalised enrichment score": 0.626}
{"Substitution": "D11Y", "normalised enrichment score": 1.56}
{"Substitution": "K6W", "normalised enrichment score": 0.11}
{"Substitution": "D11A", "normalised enrichment score": 1.25}
{"data": "Other studies, line by line", "pknB": "Serine/threonine-protein kinase PknB (pknB, Mycobacterium tuberculosis, UniProt P9WI81)", "chain of UniProt P9WI81 (whole entry, looked up)": "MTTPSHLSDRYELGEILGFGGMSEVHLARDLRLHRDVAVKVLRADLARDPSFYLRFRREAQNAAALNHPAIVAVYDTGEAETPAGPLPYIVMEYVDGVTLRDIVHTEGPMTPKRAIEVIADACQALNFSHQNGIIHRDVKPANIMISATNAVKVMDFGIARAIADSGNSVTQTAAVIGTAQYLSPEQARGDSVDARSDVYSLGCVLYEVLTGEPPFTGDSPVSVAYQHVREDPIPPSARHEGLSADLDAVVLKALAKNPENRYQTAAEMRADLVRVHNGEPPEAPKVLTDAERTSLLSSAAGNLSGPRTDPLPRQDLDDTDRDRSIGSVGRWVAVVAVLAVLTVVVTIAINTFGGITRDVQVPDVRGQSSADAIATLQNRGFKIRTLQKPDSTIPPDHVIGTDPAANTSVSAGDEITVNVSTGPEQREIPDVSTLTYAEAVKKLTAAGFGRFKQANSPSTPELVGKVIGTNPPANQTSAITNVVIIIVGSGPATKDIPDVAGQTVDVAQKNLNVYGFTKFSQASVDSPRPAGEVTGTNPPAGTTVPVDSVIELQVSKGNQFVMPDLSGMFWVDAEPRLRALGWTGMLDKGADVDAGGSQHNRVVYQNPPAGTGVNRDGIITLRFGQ"}
{"SMILES": "CCc1ccccc1C(=O)Nc1n[nH]c2c(C)c(F)c(C3C(C#N)=C(C)N(C)C(C)=C3C#N)cc12", "target or system": "pknB", "test": "cell-free assay, competition with immobilised ligand", "conditions": "1 µM", "measurement": "remaining binding", "value": "85%"}
{"SMILES": "CCc1cccc(CC)c1NC1=NCCN1", "target or system": "mouse MPNST tumor cells", "test": "high-content nuclear imaging, measured: cell number", "conditions": "10 µM, 12 h, mean of 2 replicates", "scale": "relative to: plate mean, higher = more cells", "measurement": "nuclei count", "value": "0.833 z-score"}
{"SMILES": "CN(C)[C@@H]1CCN(c2cc(-c3ccccc3)nc3ccnn23)C1", "target or system": "HTR2A (Homo sapiens, UniProt P28223)", "test": "cell-free assay", "conditions": "10 µM", "measurement": "inhibition", "value": "16.3%"}
{"SMILES": "CN[C@@H]1C[C@H]2O[C@@](C)([C@@H]1OC)n1c3ccccc3c3c4c(c5c6ccccc6n2c5c31)C(=O)NC4", "target or system": "human CD34+ HSPC", "test": "EdU flow cytometry", "conditions": "100 nM, 24 h", "measurement": "G0-G1 phase cells", "value": "31.9% and 26.6%"}
{"SMILES": "CN(C)C(=O)Cn1cc(-c2nc(C3(c4ccc(-c5cnc(N)nc5)cc4)CC3)no2)cn1", "target or system": "pknB", "test": "cell-free assay, competition with immobilised ligand", "conditions": "1 µM", "measurement": "remaining binding", "value": "85%"}
{"SMILES": "COc1cccc(C2(O)CCCCC2CN(C)C)c1 (stereo not shown)", "target or system": "mouse MPNST tumor cells", "test": "high-content nuclear imaging, measured: cell number", "conditions": "10 µM, 12 h, mean of 2 replicates", "scale": "relative to: plate mean, higher = more cells", "measurement": "nuclei count", "value": "0.703 z-score"}
{"SMILES": "N#Cc1ccc(Nc2ccc3[nH]c(=O)[nH]c3c2)c(Cl)c1", "target or system": "CDPK1 (Plasmodium falciparum, UniProt P62344)", "test": "cell-free assay, competition with immobilised ligand", "conditions": "1 µM", "measurement": "remaining binding", "value": "99%"}
